Assay results collected from several papers.
Protocols differ between the studies behind these lines. Values joined by “and” are separate records of one study, mostly repeats; a detail may differ. ± marks the error that the study gave.
MAPK8: Mitogen-activated protein kinase 8 (MAPK8, Homo sapiens, UniProt P45983)
STING1 H232R: Stimulator of interferon genes protein (STING1, Homo sapiens, UniProt Q86WV6, H232R)
Dipeptidyl peptidase 8: Dipeptidyl peptidase 8 (Homo sapiens, UniProt Q6V1X1)
Ecdysone receptor: Ecdysone receptor (Aedes albopictus, UniProt Q9U3Y4)

The cAMP luminescence of `CC(C)Oc1cc(Cl)ccc1CNc1cc(-c2ccccc2)nc2ncnn12` is reported as 22500 a.u. and 16300 a.u. and 17500 a.u. and 18800 a.u. (G-protein coupled receptor 3 (GPR3, Homo sapiens, UniProt P46089, L136A); cAMP level, cAMP GloSensor; 10 µM; higher = more cAMP).
For `N=C(N)NCCS(=O)(=O)O`, “normalised MST signal” read 0.025 (Sodium- and chloride-dependent taurine transporter (SLC6A6, Homo sapiens, UniProt P31641, G62A); binding, microscale thermophoresis; 31.3 µM, room temperature, with: 50 nM labelled protein; higher = more binding).
For `C#CCOC(=O)[C@]1(C)C=C(C(=O)OC(C)(C)C)C(=O)CC1`, “normalized kinase activity” read 0.123 and 0.105 and 0.0861 (Mitogen-activated protein kinase 1 (MAPK1, Homo sapiens, UniProt P28482); enzyme activity, D-SENSOR; 133.3 µM, single replicate).
For `O=C(CCCCCCS)Nc1ccccc1`, the binding stoichiometry was 0.8 (Histone deacetylase 8 (HDAC8, Homo sapiens, UniProt Q9BY41); ITC; triethanolamine buffer; concentration not given, pH 7.5).
The Emax of `CCOC(=O)[C@](CC)(CCCSCCOCCOCCN)NC(=O)c1ccc(C2CC2)c(Cc2ccc(F)cc2)n1` is reported as 91% (Cannabinoid receptor 2 (Cnr2, Mus musculus, UniProt P47936); cAMP, agonist).
Under “enthalpy change (ΔH)”, `CC[C@H](C)[C@H](NC(=O)[C@@H](NC(=O)[C@@H](NC(=O)[C@@H](NC(=O)[C@H](CCCNC(=N)N)NC(=O)[C@H](CCC(=O)O)NC(=O)[C@H](CCC(=O)O)NC(=O)[C@H](C)NC(=O)[C@H](CCC(=O)O)NC(=O)CNC(=O)[C@H](C)NC(=O)CN)C(C)C)C(C)C)C(C)C)C(=O)N[C@@H](CC(=O)O)C(=O)N[C@@H](CC(=O)O)C(=O)N[C@@H](CC(=O)O)C(=O)N[C@@H](CCC(=O)O)C(=O)N[C@@H](CC(=O)O)C(=O)N[C@@H](CC(=O)O)C(=O)N[C@@H](CC(=O)O)C(=O)N[C@@H](C)C(=O)N[C@@H](CCC(=O)O)C(=O)N[C@@H](CC(N)=O)C(=O)N[C@@H](CO)C(=O)N[C@@H](CO)C(=O)N[C@@H](CO)C(=O)N[C@@H](CCCNC(=N)N)C(=O)N[C@@H](Cc1ccc(O)cc1)C(=O)O` is recorded as 1.14 ± 0.14 kcal/mol (Small ubiquitin-related modifier 2 (Homo sapiens, UniProt P61956, C48A); isothermal titration calorimetry; concentration not given, pH 7.4, SUMO2 construct).
For `COc1cc(C2C(NC(=O)c3ccc(NC(=O)OC(C)(C)C)cc3)(C(=O)O)C(c3ccc(OC(=O)c4cccs4)c(OC)c3)C2(NC(=O)c2ccc(NC(=O)OC(C)(C)C)cc2)C(=O)O)ccc1OC(=O)c1cccs1` (stereo not drawn), the Emax was 4.43 ± 2.33% (Glucagon-like peptide 1 receptor (GLP1R, Homo sapiens, UniProt P43220, D198A); cAMP accumulation, agonist; receptor mutant; baseline: wild type).
For `C=CC(=O)N1CCCC(n2c(=O)c3ncccc3n(Cc3ccc(Oc4ccccc4)cc3)c2=O)C1` (stereo not drawn), the melting temperature was 45.4 °C and 56.2 °C (NudC domain-containing protein 2 (NUDCD2, Homo sapiens, UniProt Q8WVJ2); thermal proteome profiling, item: NUDCD2; treated).
For `Cn1cc(-c2cc(N3CCCCS3(=O)=O)ccc2N[C@H]2CC[C@H](C)CC2)c2cc[nH]c2c1=O` (stereo in doubt), the remaining binding was 100% (Transcription initiation factor TFIID subunit 1-like, BD2 (TAF1L, Homo sapiens, UniProt Q8IZX4); binding, competition with immobilised ligand; 1 µM).
`Cc1cc(NC(=O)c2cccc(NC(=O)/C(C#N)=C/C(C)(C)C)c2)ccc1Nc1nccc(-c2cccnc2)n1` — result for “ΔΔG bond formation contribution”: -2.25 kcal/mol (MAPK8; SPR two-step binding model; reversible bond formation).
`CCCCCCCCCCCCC/C=C/C=O`: “isoTOP-ABPP competition ratio” 1.2 (REEP5 (Homo sapiens, UniProt Q00765); competitive isoTOP-ABPP; proteome, soluble, MDA-MB-231; 100 µM, 60 min, with: iodoacetamide probe; baseline: DMSO over compound-treated, higher = stronger cysteine blockade).
Under “change in Emax”, `CCCCCCCC/C=C\CCCCCCCC(=O)OCC(O)COP(=O)(O)O` (stereo not drawn) is recorded as 0.704 (Lysophosphatidic acid receptor 1 (LPAR1, Homo sapiens, UniProt Q92633, W210A); Gi activation, agonist, NanoBiT G-protein dissociation; HEK293T; W210A mutant, unit not given; baseline: wild type).
For `O=C(O)[C@H]1O[C@@H](O[C@H]2[C@H](O)[C@H](O)[C@H](O[C@H]3[C@H](O)[C@H](O)[C@H](O)O[C@@H]3C(=O)O)O[C@H]2C(=O)O)[C@@H](O)[C@@H](O)[C@@H]1O[C@@H]1O[C@@H](C(=O)O)[C@@H](O)[C@H](O)[C@@H]1O`, the binding stoichiometry was 5.1 (Beta-lactoglobulin (LGB, Bos taurus, UniProt P02754, A134V/G80D); isothermal titration calorimetry; concentration not given, pH 2.65, 37 °C, 50 mM KH2PO4; ligand per protein).
`CC(C)(C)OC(=O)C1=C[C@@](C)(C(=O)OCC#Cc2ccncc2)CCC1=O` gave a fraction bound of 0.888 (MAPK8; D-peptide binding, inhibitor, FP peptide displacement; 1.562 µM; lower is stronger displacement).
With `NCc1cc2c(cc1F)C(=O)N(C1CCC(=O)NC1=O)C2` (stereo not drawn) the Dmax was 99% (GSPT1/CRBN (Homo sapiens, UniProt P15170+Q96SW2); degrader, Western blot; Hep3B; 24 h).
`Clc1ccc(C(Cn2cnc3ccccc32)OCc2ccc(Br)cc2)c(Cl)c1` (stereo not drawn) — result for “activity vs control”: 102% (Serine/threonine-protein kinase ULK1 (ULK1, Homo sapiens, UniProt O75385); enzyme activity, inhibitor, ADP detection; 0.1 µM).
The ΔTm of `CC[C@H](C)[C@@H]1NC(=O)[C@H](Cc2ccc(O)cc2)NC(=O)[C@H](Cc2ccccc2)NC(=O)[C@H](Cc2ccccc2)NC(=O)[C@H](Cc2ccccc2)NC(=O)CSC[C@@H](C(=O)N[C@@H](Cc2c[nH]cn2)C(N)=O)NC(=O)[C@H](CC(N)=O)NC(=O)[C@H](Cc2c[nH]c3ccccc23)NC1=O` is reported as 7.57 °C (STING1 H232R; thermal stability, DSF; 200 µM).
For `CCCC1(CC)C(=O)N(c2cccc(CN3CCN(Cc4ccc(Br)cc4)CC3)c2)C1=O`, “activity vs control” read < 5% (Dipeptidyl peptidase 8; enzyme activity, inhibitor; 5 µM).
The kinact/Ki of `COC(=O)CN1CCCc2cc3cc(C(=O)NC(Cc4cccc(Cl)c4)C(=O)NCC=CS(=O)(=O)c4ccccc4)c(=O)oc3cc21` (stereo not drawn) is reported as 14400 M⁻¹ s⁻¹ (Rhodesain (rhodesain, Trypanosoma brucei rhodesiense, UniProt Q95PM0); inhibitor; pH 5.5, 37 °C, with: Z-Phe-Arg-AMC).
`CN(C)CCCSC(=S)N1CCN(C(=O)/C=C/c2coc3ccccc3c2=O)CC1` — result for “normalised MST response”: 0.0321 (Nucleoprotein (N, Tomato spotted wilt virus, UniProt P25999); binding, microscale thermophoresis; 0.4883 µM; dose series).
`O=C1c2sc(-c3ccc(N4CCC(F)C4)nc3F)nc2CCN1c1cccnc1` (stereo not drawn) gave a specific binding of 2.2 nM and 2.11 nM (TAR DNA-binding protein 43, aggregated (TARDBP, Homo sapiens, UniProt Q13148); radioligand binding; human, FTLD-TDP type B sarkosyl-insoluble extract; 52.06 nM).
For `CN1CCCN(c2cnc3c(cc(C(=O)NCc4ccc(Cl)cc4)c(=O)n3CC(=O)N3CC(C)(F)C3)n2)C1=O`, the Hill slope was 0.7 (DNA polymerase catalytic subunit (Human cytomegalovirus, UniProt P08546); enzyme activity, inhibitor; retest).
The fraction bound of `CN(C)c1ccc(-n2cc(COC(=O)[C@@]3(C)C=C(C(=O)OC(C)(C)C)C(=O)CC3)nn2)cc1` is reported as 0.928 (MAPK8; D-peptide binding, inhibitor, FP peptide displacement; 6.25 µM; lower is stronger displacement).
`C[C@@H]1C[C@H](Nc2ccccc2)c2cc(F)ccc2N1C(=O)c1ccc(Cl)c(Cl)c1` has a pIC50 Z-score of -0.09 (Ecdysone receptor; ligand binding, inhibitor; intact cells; with: [3H]ponasterone A; direction not given).
`COC(=O)C1(C)C=C(C(=O)OC(C)(C)C)C(=O)CC1` (stereo not drawn) has a fraction bound of 0.949 (MAPK8; competitor, fluorescence polarization; 3.906 µM, with: D-peptide tracer).
`CNC(=O)C[C@H](Cc1ccc(C#N)cc1)NC(=O)c1cc(-c2ccc(CN[C@H](C)c3ccc(C)cc3)o2)ccc1Cl` — result for “activity vs control”: 123% (Serine-protein kinase ATM (ATM, Homo sapiens, UniProt Q13315); enzyme activity, inhibitor; 1 µM).
The Emax of `O=C1C[C@H](c2nc(-c3ccc(F)c4cn[nH]c34)no2)CCCN1c1ccc(F)cc1` (racemic) is reported as 91.5% (Cannabinoid receptor 2 (CNR2, Homo sapiens, UniProt P34972, F94A); cAMP, agonist, luciferase).
Under “isoTOP-ABPP competition ratio”, `CCCCCC(O)/C=C/C=O` (stereo not drawn) is recorded as 8.8 (Elongation factor 2, Cys41 (EEF2, Homo sapiens, UniProt P13639); competitive isoTOP-ABPP; proteome, soluble, MDA-MB-231; 100 µM, 60 min, with: iodoacetamide probe; baseline: DMSO over compound-treated, higher = stronger cysteine blockade).
`CC(C=CC=C(C)C=CC1=C(C)CCCC1(C)C)=CC=O` — result for “Pearson correlation coefficient”: 0.58 (Rhodopsin (RHO, Homo sapiens, UniProt P08100, P23H); ER retention, immunostaining co-localization, item: opsin with calnexin; COS-7 transfected P23H; 20.00 µM).
`COC(=O)[C@]1(Cc2ccccc2)C=C(C(=O)OC(C)(C)C)C(=O)CC1` has a fraction bound of -0.0646 (MAPK8; D-peptide binding, inhibitor, FP peptide displacement; 250 µM; lower is stronger displacement).
`C[C@@H]1C[C@H](Nc2ccccc2)c2cc(F)ccc2N1C(=O)c1ccc(C(F)(F)F)c(F)c1` gave a pIC50 Z-score of 0.51 (Ecdysone receptor; ligand binding, inhibitor; intact cells; with: [3H]ponasterone A; direction not given).
With `O=c1c2sccc2n(CC2COc3ccccc3O2)c(=O)n1O` (stereo not drawn) the koff was 0.00554 s⁻¹ (Flap endonuclease 1 (Homo sapiens, UniProt P39748); binding, Mg2+ complex, surface plasmon resonance; pH 7.4, with: 50 mM MgCl2).
`N=C(N)NCCC[C@@H]1NC(=O)[C@H](Cc2ccccc2)NC(=O)CSC[C@@H](C(=O)N[C@@H](CC(=O)O)C(N)=O)NC(=O)[C@H](CCCNC(=N)N)NC(=O)[C@H](Cc2c[nH]c3ccccc23)NC(=O)[C@H](Cc2ccc(O)cc2)NC(=O)[C@H](Cc2ccc(O)cc2)NC(=O)[C@H](Cc2ccccc2)NC1=O` gave a ΔTm of 8.56 °C (STING1 H232R; thermal stability, DSF; 100 µM).
The selectivity ratio of `CCC1(CC)C(=O)N(c2cccc(CN3CCN(C)CC3)c2)C1=O` is reported as > 4 (Dipeptidyl peptidase 8; inhibitor; with: GP-AMC substrate; baseline: Ki' DPP9 over Ki' DPP8).
`CN(C(=O)OCc1cc(C(=O)O)ccc1OP(=O)(O)O)C(=O)c1ccc(N2C(=S)N(c3ccc(C#N)c(C(F)(F)F)c3)C(=O)C2(C)C)cc1F` — result for “drug formation rate”: 4.16 pmol/min (Alkaline phosphatase, placental type (Homo sapiens, UniProt P05187); substrate; 100 µM, pH 7.6, 37 °C).
`CC(C)[C@@H]1NC(=O)[C@H](Cc2ccccc2)NC(=O)CSC[C@@H](C(N)=O)NC(=O)[C@H](CCC(=O)O)NC(=O)[C@H](CO)NC(=O)[C@H](Cc2c[nH]c3cccc(Cl)c23)NC(=O)[C@H](C2CCCCC2)NC(=O)[C@H](C(C)C)NC(=O)[C@H](Cc2ccc(O)cc2)NC(=O)[C@H](CC(=O)O)NC(=O)[C@H](Cc2c[nH]c3ccccc23)NC(=O)[C@H](Cc2ccc(N)nc2)NC(=O)[C@H](Cc2c[nH]c3ccc(Cl)cc23)NC(=O)[C@H](CCC(=O)O)NC1=O` gave a remaining activity of 98.9% (Interleukin-1 receptor-like 2 (IL1RL2, Homo sapiens, UniProt Q9HB29); reporter gene (SEAP), inhibitor, HEK-Blue IL-36R reporter; HEK-Blue IL-36R cells; 0.005 µM, 6 h, with: IL-36γ 100 ng/mL).

A few entries again:
For `CCCC1(CC)C(=O)N(c2cccc(CN3CCN(Cc4ccc(Br)cc4)CC3)c2)C1=O`, “activity vs control” read < 5% (Dipeptidyl peptidase 8; enzyme activity, inhibitor; 5 µM).
The ΔTm of `CC[C@H](C)[C@@H]1NC(=O)[C@H](Cc2ccc(O)cc2)NC(=O)[C@H](Cc2ccccc2)NC(=O)[C@H](Cc2ccccc2)NC(=O)[C@H](Cc2ccccc2)NC(=O)CSC[C@@H](C(=O)N[C@@H](Cc2c[nH]cn2)C(N)=O)NC(=O)[C@H](CC(N)=O)NC(=O)[C@H](Cc2c[nH]c3ccccc23)NC1=O` is reported as 7.57 °C (STING1 H232R; thermal stability, DSF; 200 µM).
Under “isoTOP-ABPP competition ratio”, `CCCCCC(O)/C=C/C=O` (stereo not drawn) is recorded as 8.8 (Elongation factor 2, Cys41 (EEF2, Homo sapiens, UniProt P13639); competitive isoTOP-ABPP; proteome, soluble, MDA-MB-231; 100 µM, 60 min, with: iodoacetamide probe; baseline: DMSO over compound-treated, higher = stronger cysteine blockade).
`CC(C)(C)OC(=O)C1=C[C@@](C)(C(=O)OCC#Cc2ccncc2)CCC1=O` gave a fraction bound of 0.888 (MAPK8; D-peptide binding, inhibitor, FP peptide displacement; 1.562 µM; lower is stronger displacement).
`C[C@@H]1C[C@H](Nc2ccccc2)c2cc(F)ccc2N1C(=O)c1ccc(C(F)(F)F)c(F)c1` gave a pIC50 Z-score of 0.51 (Ecdysone receptor; ligand binding, inhibitor; intact cells; with: [3H]ponasterone A; direction not given).
The selectivity ratio of `CCC1(CC)C(=O)N(c2cccc(CN3CCN(C)CC3)c2)C1=O` is reported as > 4 (Dipeptidyl peptidase 8; inhibitor; with: GP-AMC substrate; baseline: Ki' DPP9 over Ki' DPP8).
